Measurements of several laboratories.
Each line is one published result; not all experiments were run side by side. ± marks the error that the study gave.

Structure (SMILES) | cell line | test | setting | scale | quantity | result
Cn1cc(-c2ccc(-c3cncc(Cl)c3N3CCC4(CCNC4=O)CC3)cc2)cn1 | COLO 205 | microarray, refers to: TXNIP | concentration not given, 2 h | relative to: untreated cells | fold change in expression | -1.05
Nc1cccc2c1CN(C1CCC(=O)NC1=O)C2=O (centres unmarked) | bone marrow CD138+ myeloma cells | XTT | 0.6 µM, mean of three patients |  | viability | 104%
Cc1cc(=O)oc2cc(NC(=O)CCCCCCC(=O)NO)ccc12 | OCI-Ly1 |  | 1 µM, 120 h |  | viability | 24%
COc1cc2ncnc(Nc3ccc(Oc4ccccc4)c(C)c3C)c2cc1OC | COLO 205 (BRAF V600E) | resazurin | 0.3 µM, 72 h, added: trametinib | relative to: DMSO | viability | 93.3%
Cc1cc(Nc2nn(-c3ccccc3)c(=O)c3ccccc23)n[nH]1 | OCI-Ly1 |  | 0.1 µM, 120 h |  | viability | 231%
COc1cc(O)c2c(c1)C(=O)c1cc(C)cc(O)c1C2=O | HepaRG co-cultured with HK-2 | MTT | 133.33 µM, 24 h | relative to: untreated control | cell viability | 97.5 ± 13%
OCc1nc2ccc(NCc3ccc(SC(F)(F)F)cc3)cc2[nH]1 | sample A patient iPSC-derived NPCs | MTS | 10 µM, 24 h | relative to: vehicle | viability | 148 ± 3.43%
CNCc1ccc(-c2[nH]c3cc(F)cc4c3c2CCNC4=O)cc1 | OCI-Ly1 |  | 0.5 µM, 120 h |  | viability | 155%
O=C(O)c1cc(O)c2c(c1)C(=O)c1cccc(O[C@@H]3O[C@H](CO)[C@@H](O)[C@H](O)[C@H]3O)c1C2=O | HepaRG co-cultured with HK-2 | MTT | 33.33 µM, 48 h | relative to: untreated control | cell viability | 71.8 ± 9.93%
Fc1ccc(CNc2ccc3scnc3c2)cc1 | sample A patient iPSC-derived NPCs | MTS | 10 µM, 24 h | relative to: vehicle | viability | 114 ± 1.51%
Nc1cccc2c1C(=O)N(C1CCC(=O)NC1=O)C2=O (centres unmarked) | MM1.S | XTT | 1.2 µM | relative to: untreated | viability | 18%
Cc1nc2ccc(OCc3ccc(OC(F)(F)F)cc3)cc2[nH]1 | sample A patient iPSC-derived NPCs | MTS | 10 µM, 24 h | relative to: vehicle | viability | 136 ± 8.75%
CCCCCCCC(=O)c1c(O)cc(O)cc1CC(=O)OCC | COS-7 |  | 10 µM, 24 h, 0.1% DMSO, unit not given | relative to: vehicle control | necrotic cells | 0.63 ± 0.27
Cc1nc2cc(NCc3ccc(F)cc3)ccc2s1 | sample A patient iPSC-derived NPCs | MTS | 10 µM, 24 h | relative to: vehicle | viability | 98 ± 0.6%
Cc1ccc(CNC(=O)Cn2cc(CSc3nc4ccccc4[nH]3)nn2)cc1 | Caco-2 | MTT | 125 ppm |  | viability | 13.1%
Cc1cccc(-c2[nH]c(CNc3ccccc3F)nc2-c2ccc3ncnn3c2)n1 | bone marrow CD138+ myeloma cells | XTT | 1.2 µM, mean of three patients |  | viability | 16%
CCOC(=O)Nc1cc(-c2ccc(C)c(NS(C)(=O)=O)c2)nn2c(C)nnc12 | OCI-Ly1 |  | 0.5 µM, 120 h |  | viability | 21.6%
O=C(c1ccc(F)cc1)c1ccc2[nH]cnc2c1 | sample A patient iPSC-derived NPCs | MTS | 10 µM, 24 h | relative to: vehicle | viability | 95.1 ± 1.53%
Cc1cn([C@H]2C[C@H](O)[C@@H](CO)O2)c(=O)nc1N | OCI-Ly1 |  | 0.1 µM, 120 h |  | viability | 189%
CCOC(=O)Nc1ccc(NCc2ccc(F)cc2)nc1N | sample A patient iPSC-derived NPCs | MTS | 10 µM, 24 h | relative to: vehicle | viability | 113 ± 3.17%
Cc1onc(-c2ccccc2)c1-c1ccc(S(N)(=O)=O)cc1 | COS-7 |  | 100 µM, 24 h, 0.1% DMSO, unit not given | relative to: control | necrosis | 1.01 ± 0.56
Nc1ccccc1NC(=O)CCCCCCC(=O)Nc1ccccc1 | OCI-Ly1 |  | 1 µM, 120 h |  | viability | 73.7%
COc1ccc(-n2nc(C(C)=O)s/c2=N\N=C(/C)c2ccc(NC(=O)c3ccc(Cl)cc3)cc2)cc1 | HepG2 |  | 0.312 µM |  | viability | 14.1%
NC(=O)[C@H](CCCN=C(N)CCl)NC(=O)c1ccccc1 | OCI-Ly1 |  | 0.1 µM, 120 h |  | viability | 183%
COc1cc2ncnc(Nc3ccc(Oc4ccccc4)cc3C)c2cc1OC | COLO 205 (BRAF V600E) | resazurin | 0.3 µM, 72 h, added: trametinib 0 nM |  | viability | 100%
OCc1nc2ccc(NCc3ccc(OC(F)(F)F)cc3)cc2[nH]1 | sample A patient iPSC-derived NPCs | MTS | 10 µM, 24 h | relative to: vehicle | viability | 148 ± 6.23%

A few entries again:
Structure (SMILES) | cell line | test | setting | scale | quantity | result
Cc1cccc(-c2[nH]c(CNc3ccccc3F)nc2-c2ccc3ncnn3c2)n1 | bone marrow CD138+ myeloma cells | XTT | 1.2 µM, mean of three patients |  | viability | 16%
CCOC(=O)Nc1cc(-c2ccc(C)c(NS(C)(=O)=O)c2)nn2c(C)nnc12 | OCI-Ly1 |  | 0.5 µM, 120 h |  | viability | 21.6%
O=C(c1ccc(F)cc1)c1ccc2[nH]cnc2c1 | sample A patient iPSC-derived NPCs | MTS | 10 µM, 24 h | relative to: vehicle | viability | 95.1 ± 1.53%
